Experimental data of several laboratories.
Parts stem from different laboratories: compare values within a part only. Positions count from the first letter of the parent shown.
Sequence of UniProt P31751 (whole entry, looked up): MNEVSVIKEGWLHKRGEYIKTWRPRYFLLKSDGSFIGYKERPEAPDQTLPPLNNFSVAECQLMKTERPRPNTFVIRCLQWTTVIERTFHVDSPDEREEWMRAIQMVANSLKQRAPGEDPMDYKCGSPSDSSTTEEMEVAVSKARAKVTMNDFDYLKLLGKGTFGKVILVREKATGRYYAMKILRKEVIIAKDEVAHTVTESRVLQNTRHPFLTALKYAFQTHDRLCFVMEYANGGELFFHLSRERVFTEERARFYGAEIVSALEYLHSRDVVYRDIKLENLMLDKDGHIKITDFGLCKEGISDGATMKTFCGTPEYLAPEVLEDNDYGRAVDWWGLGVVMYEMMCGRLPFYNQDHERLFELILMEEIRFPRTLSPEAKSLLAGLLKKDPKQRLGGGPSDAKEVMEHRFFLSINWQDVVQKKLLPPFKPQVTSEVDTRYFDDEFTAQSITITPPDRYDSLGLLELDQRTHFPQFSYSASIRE

Block 1 — target: CEBPE, bZIP domain (human); technique: DHFR protein complementation; sample: yeast; reference: wild-type JUN-FOS pair; reading: higher = stronger binding
Setting: single substitutions, most at no-binding floor
Starting sequence: JUN, bZIP domain (human); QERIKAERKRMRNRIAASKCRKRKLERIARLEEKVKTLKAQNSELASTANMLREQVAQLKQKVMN; partner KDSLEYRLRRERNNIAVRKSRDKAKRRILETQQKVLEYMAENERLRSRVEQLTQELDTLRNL
| Variant | binding fitness |
| --- | --- |
| V56N | -1.51 natural log |
| I28C | -1.27 natural log |
| V35K | -1.36 natural log |
| E33C | -1.32 natural log |
| E54H | -1.29 natural log |
| M51I | -1.15 natural log |
| E33F | -1.38 natural log |
| A46F | -1.33 natural log |

Block 2 — target: Sox-I, HMG box (Salpingoeca helianthica); technique: Spec-seq; form: double-stranded DNA, one strand shown; sample: in vitro; tested at: not given; setting: whole probe, mean of replicates; reference: not given; reading: lower = stronger binding; all sequences stand within: GAGTCGTCTCGTCAGCAC … CCGTAGAGCACTCAGGTC
Construct (chain): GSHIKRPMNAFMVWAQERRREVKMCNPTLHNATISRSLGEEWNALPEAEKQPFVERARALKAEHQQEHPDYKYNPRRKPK
| Oligonucleotide | relative binding energy [ln ratio] |
| --- | --- |
| TGATGTT | -0.137 |
| CATCGCA | 0.646 |
| CATCAGT | 0.667 |
| CATAGAA | 0.164 |
| CTGGGTT | 1.13 |
| CGTCGTT | 0.677 |
| CATATTG | 0.446 |
| CATCTAG | 0.712 |

Block 3 — technique: protein-binding microarray; form: double-stranded DNA, one strand shown; sample: in vitro; tested at: not given; reading: higher = stronger binding
Target: Protein max, full length (MAX, Homo sapiens, UniProt P61244-2, residues 1-151)
Setting: k-mer, scored over probes, only values ≥0.25
| Oligonucleotide | E-score |
| --- | --- |
| CAGCCATG | 0.256 |
| CACGCTCC | 0.372 |
| CAGGTGCA | 0.319 |
| CACGCTAC | 0.4 |
| CGACACGC | 0.377 |
| AAGCATGT | 0.427 |
| ACGTGCCG | 0.437 |
| CCACGCGA | 0.422 |

Other studies, line by line
| SMILES | target | assay | setting | scale | measurement | result |
| --- | --- | --- | --- | --- | --- | --- |
| COc1cc2ncnc(Nc3ccc(O)c(Br)c3)c2cc1OC | RAC-beta serine/threonine-protein kinase (AKT2, Homo sapiens, UniProt P31751) | enzyme activity, inhibitor | 0.5 µM | reference: control | remaining activity | 98.7% |

A few entries again (block 2):
| Oligonucleotide | relative binding energy [ln ratio] |
| --- | --- |
| CATATTG | 0.446 |
| CATCAGT | 0.667 |
| TGATGTT | -0.137 |
